Assay results pooled from the literature.
Numbered parts are unrelated; each lists some results of a single study. Changes are numbered by the printed parent chain.

Sample 1 — target: CCNE1, cyclin fold, Cln2 fusion (human); technique: yeast growth competition, sequencing; sample: yeast; notes: strong parent motif; relative to: not given; direction: higher = stronger binding; measurement: normalised enrichment score
Starting sequence: CDKN1B docking peptide (human); PSACRNLFGPVDH; partner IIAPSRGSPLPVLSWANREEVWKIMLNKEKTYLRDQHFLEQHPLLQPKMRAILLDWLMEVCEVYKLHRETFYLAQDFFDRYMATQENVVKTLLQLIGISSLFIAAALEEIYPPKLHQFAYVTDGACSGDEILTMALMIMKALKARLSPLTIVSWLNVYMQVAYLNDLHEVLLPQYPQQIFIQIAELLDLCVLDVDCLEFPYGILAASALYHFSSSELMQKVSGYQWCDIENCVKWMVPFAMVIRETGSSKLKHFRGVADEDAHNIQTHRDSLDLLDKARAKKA
Substitution = PSACRILFGPVDH [N6I]; result = 3.96
Substitution = PSACRNLFGPEDH [V11E]; result = 2.64
Substitution = PSACRDLFGPVDH [N6D]; result = 1.09
Substitution = PSACRNLFGPVRH [D12R]; result = 2.4
Substitution = PSACTNLFGPVDH [R5T]; result = 0.324
Substitution = PSACRNWFGPVDH [L7W]; result = 0.0403
Substitution = PSACRNLFGTVDH [P10T]; result = 3.74

Sample 2 — technique: RNA Bind-n-Seq; molecule type: RNA; sample: in vitro; tested at: 200 nM; notes: whole 134-nt RNA, ends assumed; together with: 150 mM KCl; relative to: input library; direction: higher = stronger binding; measurement: log2 enrichment
Target: Fragile X messenger ribonucleoprotein 1, C-terminal low-complexity region (Fmr1, Mus musculus, UniProt P35922)
Shared flanks, not repeated: GGGAGUUCUACAGUCCGACGAUC … UGGAAUUCUCGGGUGUCAAGG
Oligonucleotide = CCUGUGCUACACAUCGUAUGUACCGAAUCGGGGAAAAAAAGGGGUUUGGGGUUUUUGGGGAAAGUAUUAUGUUACGCCGUUCGGAUCUGC; result = 0.461
Oligonucleotide = UAACUUUAGAGGAGGAUCUGAUGGAUAUGGCAGUGGACGUGGAUUUGGGGAUGGCUAUAAUGGGUAUGGAGGAGGUCCUGGAGGUGGCAA; result = 0.296
Oligonucleotide = CACAGCCAACACGCACCCACACAGACACAGAGGGAAGGGGUUGGGAUGGGGACAGGGUGCACAGCAGGGCGGGGUAGGACCCCAGCCCCU; result = 1.27
Oligonucleotide = CUCAAGUCCUGUGCUACACAUCGUAUGUACCGAAUCGGGAGGGAGGGAAAGGGAAAGUAUUAUGUUACGCCGUUCGGAUCUGCACUUCCA; result = 1.07
Oligonucleotide = GCAGGAAGUAAAAACAAAUGGAAAUGCUUCGGAUCGUGGCAGGGGUGGGGGUUGCUAAGGAAAGGGUGGGAUGGGAGUGGGUAAAGAGUU; result = 0.413
Oligonucleotide = UCCUGUGCUACACAUCGUAUGUACCGAAUCGGUUUUUUGGUUUUUUGGGUUUUUUGGGGAAAGUAUUAUGUUACGCCGUUCGGAUCUGCA; result = -0.37
Oligonucleotide = CAAGUCCUGUGCUACACAUCGUAUGUACCGAAUCGGGGAGGGGUUUGGGGAGGGGAAAGUAUUAUGUUACGCCGUUCGGAUCUGCACUUC; result = 1.45

Sample 3 — technique: protein binding microarray; molecule type: double-stranded DNA, one strand shown; sample: in vitro; tested at: not given; relative to: not given; direction: higher = stronger binding; measurement: E-score
Target: Histone acetyltransferase KAT6A, both winged helices, GST fusion (KAT6A, Homo sapiens, UniProt Q92794, residues 1-181)
Notes: 8-mer, flanks averaged, mean of 2 arrays, mostly near background
Residues (chain): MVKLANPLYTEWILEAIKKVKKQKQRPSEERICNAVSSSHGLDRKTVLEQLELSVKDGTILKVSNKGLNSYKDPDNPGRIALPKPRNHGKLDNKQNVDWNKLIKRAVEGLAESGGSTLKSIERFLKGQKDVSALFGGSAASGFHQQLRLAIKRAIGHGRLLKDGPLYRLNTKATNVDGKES
Oligonucleotide = ATTCCTTC; result = -0.0712
Oligonucleotide = AGCCTAGC; result = -0.00789
Oligonucleotide = GTCGGTGA; result = 0.0166
Oligonucleotide = ATGAGGTA; result = -0.186
Oligonucleotide = AAAGCGAC; result = 0.0368
Oligonucleotide = CATGGACC; result = -0.00639
Oligonucleotide = ATTTGCCG; result = 0.266
Oligonucleotide = CGACTCCA; result = -0.0188

Mixed results
Substance = PhoQ, residues 284 288 289 292 302 303 ASASEQ; target = PhoP, residues 12 14 15 18 19 NQFFI (Escherichia coli, UniProt P23836); test = Sort-seq, refers to: YFP reporter; test system = E. coli; conditions = PhoQ-PhoP variant library, together with: 10 µM Mg2+; scale = relative to: high Mg2+ state, higher = stronger signaling; measurement = fold induction; result = 0.99

Repeated from above (sample 2):
Oligonucleotide = CCUGUGCUACACAUCGUAUGUACCGAAUCGGGGAAAAAAAGGGGUUUGGGGUUUUUGGGGAAAGUAUUAUGUUACGCCGUUCGGAUCUGC; result = 0.461
